Assay results pooled from the literature.
Each line is one published result; not all experiments were run side by side.

| SMILES | organism | test | system | conditions | MIC |
| --- | --- | --- | --- | --- | --- |
| CS(=O)(=O)Nc1ncn(-c2cc(F)c(COc3ccc(OS(=O)(=O)F)cc3)c(F)c2)n1 | Mycolicibacterium fortuitum | – | – | – | 25 µM |
| CC[C@H](C)[C@H](NC(=O)[C@H](CCCNC(=N)N)NC(=O)[C@H](Cc1c[nH]c2ccccc12)NC(=O)[C@H](CCCNC(=N)N)NC(=O)[C@H](Cc1c[nH]c2ccccc12)NC(=O)[C@H](Cc1c[nH]c2ccccc12)NC(=O)[C@H](Cc1c[nH]c2ccccc12)NC(=O)[C@H](CCCNC(=N)N)NC(=O)[C@H](Cc1c[nH]c2ccccc12)NC(=O)[C@H](CCCNC(=N)N)NC(=O)CN)C(N)=O | Candida albicans | broth microdilution | CGMCC 2.209, RPMI 1640-MOPS | 48 h, 30 °C | 8 µM |
| CC1(C)SC2C(NC(=O)C(NC(=O)C3=C(O)CN(c4ccccc4)C3=O)c3ccccc3)C(=O)N2C1C(=O)O (centres unmarked) | Escherichia coli | broth microdilution | isolate IU 356 A, KPC-3, VIM-1, TEM | with: clavulanic acid 6 µg/mL | > 200 µg/mL |
| O=C(CO/N=c1\cc2n(-c3ccc(Cl)cc3)c3ccccc3nc-2cc1Nc1ccc(Cl)cc1)NCc1ccc(C(F)(F)F)cc1 | Neisseria gonorrhoeae | bacterial growth | 1130991, multidrug-resistant | 24 h | > 30 µM |
| CC1(C)SC2C(NC(=O)C(NC(=O)C3=C(O)C(Cc4ccsc4)NC3=O)c3ccccc3)C(=O)N2C1C(=O)O (centres unmarked) | Escherichia coli | broth microdilution | isolate IU 356 A, KPC-3, VIM-1, TEM | with: clavulanic acid 6 µg/mL | > 200 µg/mL |
| CC[C@H](C)[C@H](NC(=O)[C@H](CC(C)C)NC(=O)[C@H](CC(C)C)NC(=O)[C@H](Cc1c[nH]cn1)NC(=O)[C@H](CCCCN)NC(=O)[C@H](Cc1c[nH]cn1)NC(=O)[C@H](CCCNC(=N)N)NC(=O)[C@@H]1CCCN1C(=O)[C@H](Cc1ccc(O)cc1)NC(=O)[C@H](CC(C)C)NC(=O)[C@H](CCC(N)=O)NC(=O)[C@@H](N)CO)C(=O)N[C@@H](CCCCN)C(=O)N[C@@H](CCCNC(=N)N)C(=O)N[C@@H](CO)C(=O)N[C@@H](CC(C)C)C(=O)N[C@@H](CCCNC(=N)N)C(=O)N[C@@H](CS)C(=O)N[C@@H](CCCNC(=N)N)C(=O)N[C@@H](CCCCN)C(=O)N[C@@H](CS)C(=O)O | Micrococcus luteus | – | NCTC 2665 | – | 12.5 µg/mL |
| Cc1c2ccncc2c(C)c2c1[nH]c1ccccc12 | Candidozyma auris | inhibitor | 280 | 24 h | 128 µg/mL |
| N=C(N)c1ccc(OCc2ccc(Br)cc2COc2ccc(C(=N)N)cc2)cc1 | Escherichia coli | – | mcr-1 | 20 h, compound alone | > 100 µg/mL |
| O/N=c1\cc2n(-c3ccc(Cl)cc3)c3ccccc3nc-2cc1Nc1ccc(Cl)cc1 | Neisseria gonorrhoeae | bacterial growth | 1130991, multidrug-resistant | 24 h | 0.23 µM |
| C[C@H](NC(=O)[C@H](CCCNC(=N)N)NC(=O)[C@H](Cc1c[nH]c2ccccc12)NC(=O)[C@H](CCCNC(=N)N)NC(=O)[C@H](Cc1c[nH]c2ccccc12)NC(=O)[C@H](Cc1c[nH]c2ccccc12)NC(=O)[C@H](Cc1c[nH]c2ccccc12)NC(=O)[C@H](CCCNC(=N)N)NC(=O)[C@H](Cc1c[nH]c2ccccc12)NC(=O)[C@@H](N)CCCNC(=N)N)C(N)=O | Candida albicans | broth microdilution | CGMCC 2.209, RPMI 1640-MOPS | 48 h, 30 °C, with: NaCl 150 mM | 16 µM |
| CC(C)CC1NC(=O)C(C(=O)NC(C(=O)NC2C(=O)N3C2SC(C)(C)C3C(=O)O)c2ccccc2)=C1O (centres unmarked) | Escherichia coli | broth microdilution | Keio mutant JW0146-2 | 18 h, ferric hydroxamate uptake gene | 50 µg/mL |
| N=C(N)NCCC[C@H](NC(=O)CN)C(=O)N[C@@H](Cc1c[nH]c2ccccc12)C(=O)N[C@@H](CCCNC(=N)N)C(=O)N[C@@H](Cc1c[nH]c2ccccc12)C(=O)N[C@@H](Cc1c[nH]c2ccccc12)C(=O)N[C@@H](Cc1c[nH]c2ccccc12)C(=O)N[C@@H](CCCNC(=N)N)C(=O)N[C@@H](Cc1c[nH]c2ccccc12)C(=O)N[C@@H](CCCNC(=N)N)C(=O)N[C@@H](Cc1c[nH]c2ccccc12)C(N)=O | Candida tropicalis | broth microdilution | CGMCC 2.192, RPMI 1640-MOPS | 48 h, 30 °C | 4 µM |
| CC(C)C[C@H](NC(=O)[C@H](CCCCN)NC(=O)[C@H](CO)NC(=O)[C@H](C)NC(=O)[C@H](C)NC(=O)CNC(=O)[C@H](CC(C)C)NC(=O)[C@H](CCCCN)NC(=O)[C@H](CC(C)C)NC(=O)[C@H](CC(C)C)NC(=O)[C@H](CC(C)C)NC(=O)CNC(=O)[C@H](CO)NC(=O)[C@H](Cc1c[nH]c2ccccc12)NC(=O)[C@@H](N)CCCCN)C(N)=O | Candida tropicalis | broth microdilution | ATCC 13803 | 44 h, 37 °C | 4 to 8 µM |
| N=C(N)NCCC[C@H](NC(=O)[C@H](Cc1c[nH]c2ccccc12)NC(=O)[C@H](CCCNC(=N)N)NC(=O)[C@H](Cc1c[nH]c2ccccc12)NC(=O)[C@H](Cc1c[nH]c2ccccc12)NC(=O)[C@H](Cc1c[nH]c2ccccc12)NC(=O)[C@H](CCCNC(=N)N)NC(=O)[C@H](Cc1c[nH]c2ccccc12)NC(=O)[C@H](CCCNC(=N)N)NC(=O)CN)C(N)=O | Candida albicans | broth microdilution | CGMCC 2.209, RPMI 1640-MOPS | 48 h, 30 °C, with: KCl 4.5 mM | 4 µM |
| C[C@H](NC(=O)CO/N=c1\cc2n(-c3ccc(Cl)cc3)c3ccccc3nc-2cc1Nc1ccc(Cl)cc1)C(=O)O | Neisseria gonorrhoeae | bacterial growth | 1130991, multidrug-resistant | 24 h | 3.75 µM |
| CC(C)(C)Oc1ccc(CC2NC(=O)C(C(=O)NC(C(=O)NC3C(=O)N4C3SC(C)(C)C4C(=O)O)c3ccccc3)=C2O)cc1 (centres unmarked) | Escherichia coli | broth microdilution | isolate IU 356 A, KPC-3, VIM-1, TEM | with: clavulanic acid 6 µg/mL | > 200 µg/mL |
| CC[C@H](C)[C@H](NC(=O)[C@H](CCCNC(=N)N)NC(=O)[C@H](Cc1c[nH]c2ccccc12)NC(=O)[C@H](CCCNC(=N)N)NC(=O)[C@H](Cc1c[nH]c2ccccc12)NC(=O)[C@H](Cc1c[nH]c2ccccc12)NC(=O)[C@H](Cc1c[nH]c2ccccc12)NC(=O)[C@H](CCCNC(=N)N)NC(=O)[C@H](Cc1c[nH]c2ccccc12)NC(=O)[C@@H](N)CCCNC(=N)N)C(N)=O | Candida albicans | broth microdilution | 56467, RPMI 1640-MOPS | 48 h, 30 °C | 16 µM |

A few entries again:
| SMILES | organism | test | system | conditions | MIC |
| --- | --- | --- | --- | --- | --- |
| CC(C)(C)Oc1ccc(CC2NC(=O)C(C(=O)NC(C(=O)NC3C(=O)N4C3SC(C)(C)C4C(=O)O)c3ccccc3)=C2O)cc1 (centres unmarked) | Escherichia coli | broth microdilution | isolate IU 356 A, KPC-3, VIM-1, TEM | with: clavulanic acid 6 µg/mL | > 200 µg/mL |
| CC1(C)SC2C(NC(=O)C(NC(=O)C3=C(O)CN(c4ccccc4)C3=O)c3ccccc3)C(=O)N2C1C(=O)O (centres unmarked) | Escherichia coli | broth microdilution | isolate IU 356 A, KPC-3, VIM-1, TEM | with: clavulanic acid 6 µg/mL | > 200 µg/mL |
| CC[C@H](C)[C@H](NC(=O)[C@H](CC(C)C)NC(=O)[C@H](CC(C)C)NC(=O)[C@H](Cc1c[nH]cn1)NC(=O)[C@H](CCCCN)NC(=O)[C@H](Cc1c[nH]cn1)NC(=O)[C@H](CCCNC(=N)N)NC(=O)[C@@H]1CCCN1C(=O)[C@H](Cc1ccc(O)cc1)NC(=O)[C@H](CC(C)C)NC(=O)[C@H](CCC(N)=O)NC(=O)[C@@H](N)CO)C(=O)N[C@@H](CCCCN)C(=O)N[C@@H](CCCNC(=N)N)C(=O)N[C@@H](CO)C(=O)N[C@@H](CC(C)C)C(=O)N[C@@H](CCCNC(=N)N)C(=O)N[C@@H](CS)C(=O)N[C@@H](CCCNC(=N)N)C(=O)N[C@@H](CCCCN)C(=O)N[C@@H](CS)C(=O)O | Micrococcus luteus | – | NCTC 2665 | – | 12.5 µg/mL |
